Experimental data gathered from unrelated publications.
Each numbered part is a random draw from the data of one study; scales do not carry over between parts.

Sample 1
Target: Transcription factor Sp1 (SP1, Homo sapiens, UniProt P08047, residues 1-785, full length assumed)
Sequence of UniProt P08047 (whole entry, looked up): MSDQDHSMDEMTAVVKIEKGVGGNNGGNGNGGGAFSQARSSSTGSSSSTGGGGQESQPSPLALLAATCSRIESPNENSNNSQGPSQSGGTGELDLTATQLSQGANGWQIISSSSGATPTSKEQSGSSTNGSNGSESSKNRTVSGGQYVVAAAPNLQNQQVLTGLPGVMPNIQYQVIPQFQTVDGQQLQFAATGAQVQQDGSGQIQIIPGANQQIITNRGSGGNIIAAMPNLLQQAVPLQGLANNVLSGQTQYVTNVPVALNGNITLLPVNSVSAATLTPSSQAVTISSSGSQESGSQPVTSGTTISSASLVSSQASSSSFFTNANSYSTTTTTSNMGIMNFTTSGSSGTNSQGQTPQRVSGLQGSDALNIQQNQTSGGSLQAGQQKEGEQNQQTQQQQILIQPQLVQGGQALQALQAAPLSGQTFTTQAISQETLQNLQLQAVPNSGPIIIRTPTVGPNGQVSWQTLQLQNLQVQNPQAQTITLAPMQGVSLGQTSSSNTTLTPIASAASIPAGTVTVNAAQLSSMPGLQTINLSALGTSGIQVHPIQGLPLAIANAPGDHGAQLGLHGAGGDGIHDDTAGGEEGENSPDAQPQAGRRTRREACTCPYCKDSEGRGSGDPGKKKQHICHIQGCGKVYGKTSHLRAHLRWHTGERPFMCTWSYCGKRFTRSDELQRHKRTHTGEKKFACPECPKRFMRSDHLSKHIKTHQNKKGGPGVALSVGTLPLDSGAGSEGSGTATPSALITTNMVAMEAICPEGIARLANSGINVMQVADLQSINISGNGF
Method: protein-binding microarray
Form: double-stranded DNA, one strand shown
Medium: in vitro
Concentration: not given
Setting: k-mer, scored over probes, only values ≥0.25
Direction: higher = stronger binding
The E-score of `ACAACAAT` is reported as 0.294.
For `CCCCAACC`, the E-score was 0.265.
`ATCCCCAA` has an E-score of 0.28.

Sample 2
Target: Interferon regulatory factor 5, full length, phosphomimetic (IRF5, Homo sapiens, UniProt Q13568-2, residues 1-514, K96S/S451D/S453D/S456D/S462D)
Method: protein-binding microarray
Form: double-stranded DNA, one strand shown
Medium: in vitro
Concentration: 250 nM
Setting: 60-bp whole probe
With: salmon DNA 0.4 mg/ml
Reference: random background probes
Direction: higher = stronger binding
`GCCTAGCACTTAGGTATCCTTTCCCTTTAGTGCTAGGTCTTGATTCGCTTGACGCTGCTG` gave a log fluorescence of 0.612 z-score.
With `GCCTAGCACCTAGGTTTCCTTCTCCTTTAGTGCTAGGTCTTGATTCGCTTGACGCTGCTG` the log fluorescence was 0.955 z-score.
With `GCCTAGCACTCATAATTTACTTTGGTACTGTGCTAGGTCTTGATTCGCTTGACGCTGCTG` the log fluorescence was 0.513 z-score.
`GCCTAGCACTTAGATTGCAGTATCGATTAGTGCTAGGTCTTGATTCGCTTGACGCTGCTG` has a log fluorescence of 6.01 z-score.

Sample 3
Target: Prothrombin, mature alpha-thrombin (F2, Homo sapiens, UniProt P00734)
Method: aptamer microarray, sandwich
Form: DNA with 2'F-ANA
Medium: in vitro
Concentration: 200 nM
Setting: whole 15-mer aptamer, many near background
With: Cy3 exosite-II aptamer, 400 nM
Direction: higher = stronger binding
For `GGTTGGTGTGGTTGG (2'F-ANA at 1 2 4 6 7 9 10 11 13 14)`, “mean fluorescence intensity” read 51.3 a.u.
`GGTTGGTGTGGTTGG (2'F-ANA at 2 3 5 7 8 9 13 14)` — result for “mean fluorescence intensity”: 66.1 a.u.
`GGTTGGTGTGGTTGG (2'F-ANA at 3 4 6 11 12 14)`: “mean fluorescence intensity” 356 a.u.
Under “mean fluorescence intensity”, `GGTTGGTGTGGTTGG (2'F-ANA at 4 5 6 7 11)` is recorded as 57.9 a.u.

Mixed results
For `PhoQ, residues 284 288 289 292 302 303 ALASRC`, the fold induction was 9.6 (PhoP, residues 12 14 15 18 19 NNFVT (Escherichia coli, UniProt P23836); Sort-seq, measured: YFP reporter; E. coli; PhoQ-PhoP variant library, with: 10 µM Mg2+; reference: high Mg2+ state, higher = stronger signaling).

Some of these lines once more (mixed results):
For `PhoQ, residues 284 288 289 292 302 303 ALASRC`, the fold induction was 9.6 (PhoP, residues 12 14 15 18 19 NNFVT (Escherichia coli, UniProt P23836); Sort-seq, measured: YFP reporter; E. coli; PhoQ-PhoP variant library, with: 10 µM Mg2+; reference: high Mg2+ state, higher = stronger signaling).
